Experimental data collected from several papers.
Numbered parts are unrelated; each lists some results of a single study.

Series 1
Target: Hepatocyte nuclear factor 3-alpha (Foxa1, Mus musculus, UniProt P35582, residues 1-468, full length assumed)
Technique: EMSA with sequencing
Molecule type: double-stranded DNA, one strand shown
Sample: in vitro
Tested at: 10 and 20 nM
Setting: whole designed probe, mean of two concentrations, ends assumed
Reference: negative control set to 0
Direction: higher = stronger binding
Construct (chain): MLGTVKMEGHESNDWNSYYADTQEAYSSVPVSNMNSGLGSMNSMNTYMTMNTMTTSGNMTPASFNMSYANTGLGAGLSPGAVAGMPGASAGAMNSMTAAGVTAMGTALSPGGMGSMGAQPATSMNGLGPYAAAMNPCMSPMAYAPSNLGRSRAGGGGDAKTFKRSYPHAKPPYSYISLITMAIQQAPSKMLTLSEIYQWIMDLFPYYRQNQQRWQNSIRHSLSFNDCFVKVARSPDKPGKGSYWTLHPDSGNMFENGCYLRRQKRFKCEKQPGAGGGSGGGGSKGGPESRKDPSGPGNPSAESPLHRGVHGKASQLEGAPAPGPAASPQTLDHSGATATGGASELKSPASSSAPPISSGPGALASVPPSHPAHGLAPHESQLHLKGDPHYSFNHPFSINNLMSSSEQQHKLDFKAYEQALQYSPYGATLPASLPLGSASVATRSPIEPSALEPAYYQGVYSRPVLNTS
| Strand | normalised bound fraction |
| --- | --- |
| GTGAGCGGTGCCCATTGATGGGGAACTGACGATGTCTCCATTAGCTGTGATCAGCAAGAAGGCTGCATGAAAGAGTTGCCAGGCCCACAGTAAATTGCTTTATCGGGGAATAACTTTATGTTTACATAGAGGTTTTGGGGTTATCTATTACTGCATAGAATTTAGCCAAGTTTAACTAATAATATGTTTAATTCTCATCTTATAAGGCAAAGCAGATATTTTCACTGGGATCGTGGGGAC | 0.46 ratio |
| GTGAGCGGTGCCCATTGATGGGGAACGTGTGTGCGCGCGCGTGTGTGTGTGTTTTCTTAAGCCGGGCTATTCAAACCCTGCTGCAATTCAATGATTCATCTCCGGTAAAGGGGCATAATGCAAATAAACGGATTGCAAACGGCGCGGTTCGCGCACTTTGCAGCCGGCCCGGTGGAGCAGCCAGTGCCGGATTTCTCCCTTTTTTTGCAGATCTGCAGATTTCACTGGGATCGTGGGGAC | 0.359 ratio |
| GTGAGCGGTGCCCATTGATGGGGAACGGAGTTATCAGGAGACATTTTATGGTGAACATGGATATAAGTTTGTTCCTGAAGGATGCAGGGAATTCAGTAACACAGAAAAACAGTTCAAAGTAAACATGAACAAAACTCCAGAGATGGGTACACAGATGTGTAAAGATGGAGTTAGGTGGGCTACATGTAGATGATGAAGCCCACATATGTCACCAAAGCATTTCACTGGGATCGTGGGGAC | 0.373 ratio |
| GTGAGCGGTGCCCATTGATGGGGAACATCTTCCCCCTCTTCCTTGCCCCACCAGCTCACCTTCCCGGGTTATTTGCACAAAGGAAAATAAATAAAGCCGGCATTCGTTAACGCAGTTCACGCGCATACTGCTGTTTGCTCTGGATGAATCATGGTCCTTTGGCGAGGCGTGGCTCCGGGAGAGCAAAGCACCGTGTCAGGGCCATGATCCGGGGTGGCCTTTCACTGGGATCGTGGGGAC | 0.365 ratio |
| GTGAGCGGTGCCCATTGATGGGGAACGCCAGGAAATGTAGTTCTTTAGCTGGACCCATTGCTGCTCCCCTCCCACAAATCAGTTTTTGTTAGAAAGAAGGGGAAGTGGATTTGGGGAAAGTAAATACAGCAGCTAAACAGCAAGTACAAATCACACATTCAAAAAGTGTGTCCATAAAGGGAAGGAGAGAGATGAGATGATAGTTGGAAGGGGATGTGGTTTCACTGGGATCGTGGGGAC | 0.274 ratio |
| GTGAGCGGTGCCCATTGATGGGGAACGGGTCCCGGGCGGCGGCAGGAATGCAGGAATGCGCACAGGCTGTGGGCGGCCAGGAGGGAGTCCCGGCGCCTGCCCCGGCGGAAGTGAGTCTTAGAGTACCCTGTCCAACACCTCCCCCCGCCAGCGCGGAAGGCCGGGCTACCTGCGCGCCTGGCAGCGCCTGGCAGCCGGCTGGGTGGGGCGCAGGGGAGCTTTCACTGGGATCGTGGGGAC | -0.0638 ratio |

Series 2
Target: RNA binding protein fox-1 homolog 2, RRM domain, GST-SBP tag (RBFOX2, Homo sapiens, UniProt O43251-10, residues 100-194)
Technique: RNA Bind-n-Seq
Molecule type: RNA
Sample: in vitro
Tested at: 365 nM
Setting: natural RNA segment, single round, ends assumed
Reference: no-protein control
Direction: higher = stronger binding
Target sequence (chain): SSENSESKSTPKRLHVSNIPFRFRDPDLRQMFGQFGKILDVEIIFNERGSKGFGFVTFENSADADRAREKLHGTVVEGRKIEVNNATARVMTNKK
| Strand | RBNS enrichment (R) |
| --- | --- |
| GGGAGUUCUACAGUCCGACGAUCGCCUUGGGGACCCUUUCUUCUCUCUGAUGAUGGCAGUCUGGAAUAAAGCACUGUCACCUUUGACUCUAUUACCUGUUGCAAAGCCAGAGGGCUGCCCUUCUCUGCAAAACUGGAAUUCUCGGGUGCCAA | 0.487 |
| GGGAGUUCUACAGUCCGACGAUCGGCUUUGCUGAGGCUUCCCCUUGGCCAUGUGAAAGCCCGCCUUGUUGCCUGCUUUGUGCUUUCUGCACCAGACAACCUGAUGGAACAUUUGCACCUGAGUUGUACAUUUUUGGAAUUCUCGGGUGCCAA | 0.216 |
| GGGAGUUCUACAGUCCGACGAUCGUUAAUCAACCUUCAAACCAGUCUUGAAGCCAGCUACUUGUUUCUUCAUCUCAGACUCCUAGGGGAAUGAAAGCUGUCUUCUGUGAAUGUGCAAGGGUUUGGCUCGUGUCUGGAAUUCUCGGGUGCCAA | 1.26 |
| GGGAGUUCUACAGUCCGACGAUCAUUUGAAAACUCUUUAAGUUCAUGUUAUACAAGAUGAUUUACUGUAUUAUACUUUUCCUUUUUUAUAUAAUGUCUAACAAAAAAUACAGCUGCAACAUUUUGAUUCCUGUUGGAAUUCUCGGGUGCCAA | 0.889 |
| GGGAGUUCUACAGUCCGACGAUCCGACUACUUCAAAAUGAUCUGAAAAGUUAUCACACAAAAAGGGUCUACUGUAGGAUCUUACAUUCUGUUAGUAGUACAAAGGGAAGAGUUUUCCUAAUCCUUCCUUACCAUGGAAUUCUCGGGUGCCAA | 0.309 |
| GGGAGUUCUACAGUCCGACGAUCUUGGGUCAACUGACAUCCAUUGUAUAUACUAAUUGGUUUCUUUCAAACUAUUUUUUUUUUUGGUUUGGUUUUGAAUUGUUGGUUUCUUUUCAUUUUAUCAAAAGCAGGGCUGGAAUUCUCGGGUGCCAA | 0.513 |
| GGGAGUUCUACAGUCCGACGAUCUCCCAGCGUGACUUAUUUGGGGAUUCCUCAGGGCCUACUGGAAUGUGACUGCCCACUGCCCAGCUGCCUCGGGUACAAGUCCUGGCCCUAUGUCCCAGCUGUCAGGGGCUUGGAAUUCUCGGGUGCCAA | 0.712 |
| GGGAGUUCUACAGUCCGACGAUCGCAGAGACCUGGGACUCUGUAUUUCUAUAGUUCUCCUGGCAGAGCCUUUGAGAAUGGGGAGAAACAGCCUGGGCUGGGGCUACAGGUCUGUCACUAUGCUCUCUUGCCUUUGGAAUUCUCGGGUGCCAA | 0.656 |
| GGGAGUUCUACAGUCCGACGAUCGAGGUCAACAGCAGGCAUGGGGAGCCGAGUCUUCUGUGCUCAGGUCCUCACGCUGCAGACGCCCCCUAGAGGAACUUUCCUUCCUUUCCAGCAUUCCCCACAGCACUGCCUGGAAUUCUCGGGUGCCAA | 0.297 |
| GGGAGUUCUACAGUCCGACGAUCAUGUCCGUGACAUUAAAGGCUCCACAUGAUUGACCACAGCAUGGGAGAGCGGUGUUCUUCACUCGACUCCACCCUGCUGGACACAGGAAAAUUUCAAUUGCUAAAAAAAAUGGAAUUCUCGGGUGCCAA | 0.271 |
| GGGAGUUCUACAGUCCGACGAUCUUGUGAAGCUAUAGUACAUGUAGGCAUUUAGUUAAGUAUAGCAAUUCAAACUGACCUGCAUCCAUCCAAAACAAAUUCCUCCUUCAACCUUAUUUUUACUUGAAAUUUGCUGGAAUUCUCGGGUGCCAA | 0.901 |
| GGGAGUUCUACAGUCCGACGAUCUAAUGCUGGUAGCAGUUGGAUCCAGGCACAACCAGACUUAGUUGCACAACUGUAUGUGACCAAAAGACACAUUUUGUGUCACUCCUGCUUUCCUGUCAGCUGUUGACACCUGGAAUUCUCGGGUGCCAA | 0.309 |

Series 3
Target: Ras GTPase-activating protein-binding protein 1, full length (G3BP1, Homo sapiens, UniProt Q13283)
Chain of UniProt Q13283 (whole entry, looked up): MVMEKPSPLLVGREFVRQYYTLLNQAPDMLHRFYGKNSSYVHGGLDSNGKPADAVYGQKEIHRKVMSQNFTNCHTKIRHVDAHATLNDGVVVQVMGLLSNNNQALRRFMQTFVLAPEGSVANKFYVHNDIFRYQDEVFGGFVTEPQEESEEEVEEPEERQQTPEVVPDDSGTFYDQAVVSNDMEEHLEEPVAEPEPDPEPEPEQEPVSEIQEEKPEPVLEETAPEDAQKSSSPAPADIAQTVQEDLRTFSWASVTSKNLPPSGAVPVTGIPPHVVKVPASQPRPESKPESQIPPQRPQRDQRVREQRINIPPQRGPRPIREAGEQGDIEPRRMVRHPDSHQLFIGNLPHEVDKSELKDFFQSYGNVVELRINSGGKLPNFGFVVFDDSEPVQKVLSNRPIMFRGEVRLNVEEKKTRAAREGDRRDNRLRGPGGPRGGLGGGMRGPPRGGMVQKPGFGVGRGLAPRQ
Technique: RNA Bind-n-Seq
Molecule type: RNA
Sample: in vitro
Tested at: 200 nM
Setting: whole 134-nt RNA, ends assumed
Together with: 150 mM LiCl
Reference: input library
Direction: higher = stronger binding
All molecules: 7-deaza-guanosine replaces G
| Strand | log2 enrichment |
| --- | --- |
| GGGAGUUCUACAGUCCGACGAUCAGUCCUGUGCUACACAUCGUAUGUACCGAAUCGGGAGGGUUUUUUUGGGAAAAAGGGAAAGUAUUAUGUUACGCCGUUCGGAUCUGCACUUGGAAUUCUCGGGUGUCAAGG | -0.578 |
| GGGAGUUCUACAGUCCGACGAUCUGGCCCUGGUGGCAUGCGGGGAGGAAGAGGUGGCCUCAUGGAUCGUGGCGGUCCCGGUGGAAUGUUCAGAGGUGGCCGUGGUGGAGACAGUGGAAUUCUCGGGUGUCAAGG | 0.418 |
| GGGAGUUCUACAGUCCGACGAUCAGUCCUGUGCUACACAUCGUAUGUACCGAAUCAAAUUUAAACCCCCAAACCCCCAAAAAAGUAUUAUGUUACGCCGUUCGGAUCUGCACUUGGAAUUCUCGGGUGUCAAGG | 0.897 |
| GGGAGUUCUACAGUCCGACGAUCUGGCCCUGGUGGCAUGCGGGGAGGAAGAGGUGGCCUCAUGGAUCGUGGUGGUCCCGGUGGAAUGUUCAGUGGUGGCCGUGGUGGAGACAGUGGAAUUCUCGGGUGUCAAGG | 0.14 |
| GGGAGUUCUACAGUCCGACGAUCAGUCCUGUGCUACACAUCGUAUGUACCGAAUCGGGUUUUUGGUUUUUGGGUUUUUGGGAAAGUAUUAUGUUACGCCGUUCGGAUCUGCACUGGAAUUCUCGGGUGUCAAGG | -0.251 |
| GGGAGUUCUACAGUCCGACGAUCAGUCCUGUGCUACACAUCGUAUGUACCGAAUCGGUUUUUGGAAAAAAAGGAAAAAGGAAAGUAUUAUGUUACGCCGUUCGGAUCUGCACUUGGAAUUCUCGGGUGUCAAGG | -2.4 |
| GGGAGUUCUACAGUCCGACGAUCCCUGUGCUACACAUCGUAUGUACCGAAUCGGGGAAAAAGGGGAAAGGGGAAAAAAAGGGGAAAGUAUUAUGUUACGCCGUUCGGAUCUGCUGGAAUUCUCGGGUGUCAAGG | 0.909 |
| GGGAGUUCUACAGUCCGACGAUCUCAAGUCCUGUGCUACACAUCGUAUGUACCGAAUCGGGUGGGAAAGGGUUUGGGAAAGUAUUAUGUUACGCCGUUCGGAUCUGCACUUCCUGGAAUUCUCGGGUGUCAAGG | -1.45 |
| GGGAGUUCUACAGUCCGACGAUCUGGGAAGUGGAUUUUGUUUAUUUUUUUAGCUCAUUUCCAGGGGUGGGAAUUUUUUUUUAAUAUGUGUCAUGAAUAAAGUUGUUUUUGAAAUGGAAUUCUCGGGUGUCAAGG | -0.517 |
| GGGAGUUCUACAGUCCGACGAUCUCAAGUCCUGUGCUACACAUCGUAUGUACCGAAUCGGGCCCGGGCCCGGGCCCGGAAAGUAUUAUGUUACGCCGUUCGGAUCUGCACUUCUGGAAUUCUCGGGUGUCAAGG | 0.0647 |
| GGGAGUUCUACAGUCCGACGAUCUCAAGUCCUGUGCUACACAUCGUAUGUACCGAAUCGGAAAGGUUUUUGGUUUGGAAAGUAUUAUGUUACGCCGUUCGGAUCUGCACUUCCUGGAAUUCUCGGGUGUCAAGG | -1.49 |

Series 4
Target: Histone acetyltransferase KAT6A, winged helix 1, GST fusion (KAT6A, Homo sapiens, UniProt Q92794, residues 1-85)
Technique: protein binding microarray
Molecule type: double-stranded DNA, one strand shown
Sample: in vitro
Tested at: not given
Setting: 8-mer, flanks averaged, mean of 2 arrays, mostly near background
Reference: not given
Direction: higher = stronger binding
Residues (chain): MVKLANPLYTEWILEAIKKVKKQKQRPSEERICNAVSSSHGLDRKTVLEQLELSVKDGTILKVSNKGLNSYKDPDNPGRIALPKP
| Strand | E-score |
| --- | --- |
| TAATGCGA | 0.142 |
| GGTGTCGA | 0.0475 |
| AAGGGGCT | -0.124 |
| GAGGCCGA | 0.116 |
| CTACCATC | -0.24 |
| CTGTTCTC | -0.129 |
| ACACAAAA | -0.248 |
| CGGGCCCC | 0.365 |
| GCTAAACA | -0.172 |
| CTACTTAA | -0.164 |
| TCCTATAA | -0.184 |
| CCGTCAGG | 0.183 |
| AAGTCGAC | -0.223 |
| GATACACA | -0.24 |
| AGACGTTA | -0.112 |
| GAAGAGCA | -0.00614 |
| ACCTCGTC | -0.0308 |
| CCGGCTTA | 0.196 |
